Measurements collected from several papers.
Every numbered part comes from another study and shows a few of its results, in no order.

Block 1 — technique: protein binding microarray; molecule type: double-stranded DNA, one strand shown; sample: in vitro; concentration: not given; reference: not given; reading: higher = stronger binding
Target: Histone acetyltransferase KAT6A, both winged helices, GST fusion (KAT6A, Homo sapiens, UniProt Q92794, residues 1-181)
Notes: 8-mer, flanks averaged, mean of 2 arrays, mostly near background
Construct (chain): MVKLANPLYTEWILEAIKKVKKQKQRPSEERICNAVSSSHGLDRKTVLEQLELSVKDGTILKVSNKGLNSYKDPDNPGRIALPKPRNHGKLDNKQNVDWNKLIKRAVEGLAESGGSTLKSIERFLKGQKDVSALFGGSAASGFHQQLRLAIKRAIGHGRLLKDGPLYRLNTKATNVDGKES
| Sequence | E-score |
| --- | --- |
| AGGATACG | -0.00368 |
| AACGGCCC | 0.138 |
| CGCCGTCC | 0.253 |

Block 2 — technique: RNA Bind-n-Seq; molecule type: RNA; sample: in vitro; concentration: 1 µM; notes: whole 134-nt RNA, ends assumed; together with: 150 mM KCl; reference: input library; reading: higher = stronger binding
Target: Ras GTPase-activating protein-binding protein 1, C-terminal RGG region (G3BP1, Homo sapiens, UniProt Q13283)
Sequence of UniProt Q13283 (whole entry, looked up): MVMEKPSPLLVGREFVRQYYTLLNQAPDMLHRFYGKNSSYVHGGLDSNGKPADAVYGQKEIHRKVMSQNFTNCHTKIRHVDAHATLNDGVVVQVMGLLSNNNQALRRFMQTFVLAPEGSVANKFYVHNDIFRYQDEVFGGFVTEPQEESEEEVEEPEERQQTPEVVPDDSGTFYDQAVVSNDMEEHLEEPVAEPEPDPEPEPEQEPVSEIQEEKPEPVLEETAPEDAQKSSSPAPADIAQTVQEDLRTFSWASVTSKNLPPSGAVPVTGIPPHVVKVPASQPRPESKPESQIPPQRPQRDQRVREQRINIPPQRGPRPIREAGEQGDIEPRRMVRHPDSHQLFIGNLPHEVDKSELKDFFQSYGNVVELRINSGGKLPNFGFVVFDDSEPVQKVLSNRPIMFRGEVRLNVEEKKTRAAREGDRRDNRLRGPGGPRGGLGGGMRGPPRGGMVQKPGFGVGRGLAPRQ
| Sequence | log2 enrichment |
| --- | --- |
| GGGAGUUCUACAGUCCGACGAUCUCAUGUAUAGACAACGCCAUUAUUGACGAGAUCACUCCCAAGCGGAUUGGAGAUUGUCCCAAUAUUUAGACCUAUAGCAAGGCCUUGGGAUGGAAUUCUCGGGUGUCAAGG | -0.477 |
| GGGAGUUCUACAGUCCGACGAUCUCAAGUCCUGUGCUACACAUCGUAUGUACCGAAUCGGAAAGGAAAAAAAGGUGGAAAGUAUUAUGUUACGCCGUUCGGAUCUGCACUUCCUGGAAUUCUCGGGUGUCAAGG | -1.25 |
| GGGAGUUCUACAGUCCGACGAUCCCUCAAGUCCUGUGCUACACAUCGUAUGUACCGAAUCGGUUGGUUGGGGUUGGAAAGUAUUAUGUUACGCCGUUCGGAUCUGCACUUCCAUGGAAUUCUCGGGUGUCAAGG | -0.919 |

Block 3 — technique: RNA Bind-n-Seq; molecule type: RNA; sample: in vitro; concentration: 365 nM; reference: no-protein control; reading: higher = stronger binding
Target: RNA binding protein fox-1 homolog 2, RRM domain, GST-SBP tag (RBFOX2, Homo sapiens, UniProt O43251-10, residues 100-194)
Notes: natural RNA segment, single round, ends assumed
Construct (chain): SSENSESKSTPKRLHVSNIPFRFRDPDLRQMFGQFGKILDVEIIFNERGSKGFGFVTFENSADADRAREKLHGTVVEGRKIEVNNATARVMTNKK
| Sequence | RBNS enrichment (R) |
| --- | --- |
| GGGAGUUCUACAGUCCGACGAUCACAUUCAGGCCAGACACUUGAAAGUGACUGUUUGUUCUUAUAGUGUCCCCAAGUCUGCUAAUUAAGGGCCCACUUCUACUUUCUAGUCGCACUUCUGAAAUUCCAUAUUUUGGAAUUCUCGGGUGCCAA | 0.367 |
| GGGAGUUCUACAGUCCGACGAUCGGAGUGCAGUGGCAUGAUCUCAGCCACUGCAACCUCUGCCUCCCGGGUUCAAGCGAUUCUUCUGCCUCAGCCUCCCAAGUAGUUGGGAUUACAGACAUGUGCCACCACGCUGGAAUUCUCGGGUGCCAA | 0.235 |
| GGGAGUUCUACAGUCCGACGAUCGCGUUGUCCACUUUGUGGGGCUUUGUAGGUAGACGGAGCCACACUACAGGCAGGGUAUGAGCAGAGGGAUGUAUGGAGUGUGGGUGACUCUGAGCCUCACUGCUGCUGCAUGGAAUUCUCGGGUGCCAA | 3.83 |

Single results of other studies
| Molecule | target | assay | system | setting | scale | quantity | value |
| --- | --- | --- | --- | --- | --- | --- | --- |
| PhoQ, residues 284 288 289 292 302 303 TNSAEL | PhoP, residues 12 14 15 18 19 TTLRV (Escherichia coli, UniProt P23836) | Sort-seq, refers to: YFP reporter | E. coli | PhoQ-PhoP variant library, together with: 10 µM Mg2+ | reference: high Mg2+ state, higher = stronger signaling | fold induction | 7.5 |

Excerpt of the above (block 3):
| Sequence | RBNS enrichment (R) |
| --- | --- |
| GGGAGUUCUACAGUCCGACGAUCGGAGUGCAGUGGCAUGAUCUCAGCCACUGCAACCUCUGCCUCCCGGGUUCAAGCGAUUCUUCUGCCUCAGCCUCCCAAGUAGUUGGGAUUACAGACAUGUGCCACCACGCUGGAAUUCUCGGGUGCCAA | 0.235 |
